{"data": "Measured values of several laboratories"}
{"SMILES": "CO[C@H]1C[C@@H]2CC[C@@H](C)[C@@](O)(O2)C(=O)C(=O)N2CCCC[C@H]2C(=O)O[C@H]([C@H](C)C[C@@H]2CC[C@@H](OC(=O)NCCOCCOCCOCCOCCOCCOCCOCCOCCC(=O)N3CCc4cc(Cn5nc(-c6ccc7oc(N)nc7c6)c6c(N)ncnc65)ccc4C3)[C@H](OC)C2)C[C@@H](O)[C@H](C)/C=C(\\C)[C@@H](O)[C@@H](OC)C(=O)[C@H](C)C[C@H](C)/C=C/C=C/C=C/1C", "assay": "phase 1 dose escalation", "test system": "advanced solid tumour patients", "conditions": "intravenous, 6 mg weekly, any grade", "measurement": "any TEAE incidence", "value": "100%"}
{"SMILES": "[O-][S+]1CCc2nc(N3CCC(c4ncc(Cl)cn4)CC3)nc(NC3(CO)CCC3)c21 (centres unmarked)", "test system": "idiopathic pulmonary fibrosis patients", "conditions": "18 mg twice daily", "measurement": "Investigations adverse events", "value": "30%"}
{"SMILES": "O=S(=O)(Nc1ccccc1)c1ccc(NC(=S)Nc2ccccc2)cc1", "assay": "measured: Glu", "test system": "female mouse, blood", "conditions": "oral, 80 mg/kg daily, 14 days", "measurement": "blood chemistry level", "value": "187 mg/dL"}
{"SMILES": "CCc1ccc(CC/C=C/c2ccc3c(c2)C(=O)CC3)cc1", "test system": "Sprague-Dawley rat, female", "conditions": "oral, 120 mg/kg/day, 14 days", "measurement": "Albumin", "value": "39 g/L"}
{"SMILES": "COc1ncccc1-c1cnn2ccc(N3CCN(C(=O)OC(C)C)CC3)nc12", "test system": "mouse, SNL model, plasma", "conditions": "oral, 60 mg/kg, 30 min", "measurement": "drug concentration", "value": "15 µM"}
{"SMILES": "CCCCCCCCCCCCCCCC(=O)N[C@@H](CCC(=O)NCCCC[C@H](NC(=O)[C@H](CC(=O)O)NC(=O)[C@H](CO)NC(=O)[C@@H](NC(=O)[C@H](Cc1ccccc1)NC(=O)[C@@H](NC(=O)CNC(=O)[C@H](CCC(N)=O)NC(=O)[C@H](CO)NC(=O)[C@@H](N)Cc1c[nH]cn1)[C@@H](C)O)[C@@H](C)O)C(=O)N[C@@H](CO)C(=O)N[C@@H](CCC(=O)O)C(=O)N[C@@H](Cc1ccc(O)cc1)C(=O)N[C@@H](CC(C)C)C(=O)N[C@@H](CC(=O)O)C(=O)N[C@@H](CO)C(=O)N[C@@H](CCC(=O)O)C(=O)N[C@@H](CCCNC(=N)N)C(=O)N[C@@H](C)C(=O)N[C@@H](CCCNC(=N)N)C(=O)N[C@@H](CC(=O)O)C(=O)N[C@@H](Cc1ccccc1)C(=O)N[C@H](C(=O)N[C@@H](C)C(=O)N[C@@H](Cc1c[nH]c2ccccc12)C(=O)N[C@@H](CC(C)C)C(=O)N[C@@H](CCC(=O)O)C(=O)N[C@@H](C)C(=O)NCC(=O)NCC(=O)O)C(C)C)C(=O)O", "assay": "measured: Headache", "test system": "humans CrCl below 20 mL/min", "conditions": "subcutaneous, 100 µg single dose", "measurement": "treatment-related adverse events", "value": "33.3%"}
{"SMILES": "COc1cc2c(Oc3ccc4[nH]c(C)cc4c3F)ccnc2cc1OCC1(N)CC1", "test system": "paediatric recurrent refractory sarcoma", "conditions": "12 mg", "measurement": "grade 1 or 2 Hyperuricemia", "value": "18.2%"}
{"SMILES": "CN1CC[C@@H](c2c(O)cc(O)c3c(=O)cc(-c4ccc(C(F)(F)F)cc4Cl)oc23)[C@@H]1CO", "assay": "measured: Vomiting", "test system": "B-cell malignancies or AML", "conditions": "oral, 50 mg, continuous dosing", "measurement": "patients with adverse event", "value": "12.5%"}
{"note": "Some of these lines once more:"}
{"SMILES": "CCc1ccc(CC/C=C/c2ccc3c(c2)C(=O)CC3)cc1", "test system": "Sprague-Dawley rat, female", "conditions": "oral, 120 mg/kg/day, 14 days", "measurement": "Albumin", "value": "39 g/L"}
